Measured values collected from several papers.
Every numbered part comes from another study and shows a few of its results, in no order. Substitutions count along the parent as printed.

Series 1 — method: RNA Bind-n-Seq; molecule type: RNA; matrix: in vitro; tested at: 365 nM; baseline: no-protein control; reading: higher = stronger binding
Target: RNA binding protein fox-1 homolog 2, RRM domain, GST-SBP tag (RBFOX2, Homo sapiens, UniProt O43251-10, residues 100-194)
Setting: natural RNA segment, single round, ends assumed
Constant ends, left off below: GGGAGUUCUACAGUCCGACGAUC … UGGAAUUCUCGGGUGCCAA
Construct (chain): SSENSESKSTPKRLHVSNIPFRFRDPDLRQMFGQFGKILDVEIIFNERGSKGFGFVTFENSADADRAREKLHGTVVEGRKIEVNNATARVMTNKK
Oligonucleotide	RBNS enrichment (R)
CUGUGCCUCUUGUGAGGGCCAUUUGGGACCUCCCUGGGGCACUGCACAAUUGAUAGUGUACCAAUAGAGGGAGACUGGGCGAUCUGGAACAGCACGUGGUGGGGUCCUGC	1.69
UUUUUUCCUGUCCUGUAAAGAGAGAAUUCUUAAGAUAUCAGGCAUAAUGUAUGUACCUUUUCCAGACUGAAGUUCAAAGAAUGAUUAGGUUCAAUCUUUCAGUGGCAGGC	0.375
CAACACGUGUCCCUACAGGCAAAGUGUCCUGGCAUUUAAAACCCAGAUUAUCCCUGGGUUUGGGCUGCAGUCACCUGGAGAAGCUGGUAGGGUAAGGGAGAGGGACCCUG	0.576
CCAGUUUCUAUGGCCUUGCUGUGGACUUUCCCCUCUUUGUCGGUAACCUUUCGCCUAUGGCUUACAGUUCGACAUUUAAUUUAUUAGCGCUGCUCUGCACCCCUCCUGCC	0.892
GCAGGGGUAGGGAAGCUCACCCCUCCCCCCCAAAGCCAUGUCACUGAAGAGGCCUGGGGGGUGGUAUAUGGCCCCUCCCCAUCAGGCGCUAAGGGGACACCCCUUCCCCA	0.272
AGAGCAAAGGUGAUUCCUGGUGGAGAAGGGGAAAAGCCCUUCUACCCUAGAGUCAUGCCUGGAUCCACAACUCCACAGGUAUCUGCAGCAUUUUCUACCUGGCCCUAUCG	0.558
GUGCUCAGAUGGGCUCAUCGUUGGUUCGUUUUUACUGUAUAUUUAUAGUAAUAAAAUCAUGCAGCAAUAUCCUGUCUGCUCCUUCCUCCGGGUGCAGCCCUCAGGAUUGU	0.211
CUAAAAUAAUCGUCAGUCUUAAGAGUAAAGACAGCGAAACUGCACACUUAUAAGUUCUUUUCAGCUUCUACAAUAAAGAAAAGUUCAGAAAUGCUUUCAGUUACCAAAGU	0.304
AGGGCUGCAGCUGAGAGCAGACUGCUGAUUGGUGACUCUGGUCUGCCUAGCUUUUGCAACUCUUUAAGCUUACUGUGAUCACGUGCCCUCUCAGUAGGGGGCUUUUAGAG	0.587
ACUCGACCUCUCCCUAAAAAGAUGUUGCAACCCAGUUUCUCUGAAUUCCACCACAAAAAGAGACCCUGAAUAAGAAGAGCAGUUUUCCUGUGCAUAUAGAGGGUGUGUCA	0.786
GCCCCAGGGCAUCUGCCAACUCCAGUAUCAGCUCUCACAGUGUACUUGGUACCAUCCCUGGGCUCUGCUGGCGAGACGAAACAGCUGUAGAGAUGAAAACAGGCUGCAGA	0.304
CUCUCGACUCCUGUGGCAUGGUGCUAGUGCAUGUGACCUGUGCUGUUGUCACCCCAUGUGUUGUGUGUGACCUGUCCUCGUGUGCCCUUGGUGUCUGACUUCAGAGAGUC	7.44

Series 2 — method: RNA Bind-n-Seq; molecule type: RNA; matrix: in vitro; tested at: not given; baseline: input RNA pool; reading: higher = stronger binding
Target: RING finger protein unkempt homolog, zinc fingers 1-6, GST-SBP tag (UNK, Homo sapiens, UniProt Q9C0B0, residues 30-357)
Setting: RNA with constant flanks, human-mouse chimeric sites, ends assumed
Constant ends, left off below: GGGAGUUCUACAGUCCGACGAUC … CAACAGAGGAUUGAGCAUCA
Construct (chain): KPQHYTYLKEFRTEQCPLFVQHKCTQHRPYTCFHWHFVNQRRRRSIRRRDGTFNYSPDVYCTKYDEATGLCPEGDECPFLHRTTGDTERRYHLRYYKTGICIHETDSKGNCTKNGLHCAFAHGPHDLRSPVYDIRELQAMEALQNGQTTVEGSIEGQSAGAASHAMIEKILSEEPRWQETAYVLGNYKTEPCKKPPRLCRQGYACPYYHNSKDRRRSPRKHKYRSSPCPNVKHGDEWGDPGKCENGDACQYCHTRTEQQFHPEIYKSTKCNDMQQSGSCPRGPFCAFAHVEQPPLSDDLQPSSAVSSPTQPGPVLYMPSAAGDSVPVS
Oligonucleotide	bound/input enrichment
CGGAGCCCUCCUCUCCCACAGGCCCAAGAUAUAACCCACCAGUGCCUUCUGUCUGCUUGUCAGCUCUAAUCAAUCAUCCUGUCCUCUCACGCCCACACCAAGUGCCCAAAGUGGGGAGGG	0.432 ratio
GUGACUGGUGUUAAGAUUUCCCCUCAGCAAAGAAGUGCAGUAGUCACCAUAAUUCCAUCUGUGGUGAGUGCCAGUCAGAUAAAAGAGCUGGUCCCAGACCUCAGUUUAGACAUGGGAACU	0.273 ratio
GGGUGGGUGGUCAUUGCCGUUUGAGCUCUGCUGAUUCAUGAGUCGCCUUCAAAACUCUCGUGUAGGGUUGACAAUGUGGGGGGGUGGGGGAUCCAGCUUAUUCUUUUAUUUUCAAGUCCA	1.06 ratio
GAAACAUUUAAAUUUAAAGAAGCUGUUGUUCUAGGAAGUACGGACUUUCUAGAAGAUGAUAUAGAGAAAAUUGUAGAAGAACUGGGGAAAGAAUACAAAGGCAAUGCCUACCAUCUGAUG	1.13 ratio
GAUGAUAAUCACACAAACAAGUCACUGUUACAUGACCAGCCUUGGGAUUCUUCUCCUGAUUAAUAUUCUCCCUGGAACCACUGGUCAAGGGGAAUCAAGACGACAAGAACCUGGGGACUU	0.136 ratio
UUGCCUGAGAACGAGGAUGAGCUGGAGAGCACCAACAGGCGCUACACCAAGAGAGACUGCAGCACUUUCCUCAGAACUAGUGAGACGGGCAUCGUGGACCAGGUCAUGGUCACUCUCAAC	0.151 ratio
UAAGUUAUUUUGUACAGUAAGUUAUUUUCUUAACAUUUUUAUAUUGCCAUGUUUAUUUUGUUUGGGUAAUUUGGUUCAUUAAGUACAUAGCUAAGGUACAUCUUUCAUUUUUCAGUAAUU	1.66 ratio
AGGAGGAGGUUAAAGGGUGAAAAUGGGGUGGAAGACUGUGUCAUGGCUCUGGAGACACUGUUCAGUGUCCUGCUUUCUCUGUGCAGACUGAUGGCCCCUUACACGCCCUUUCUGACUGAG	0.0611 ratio
UUGCUACUAACUCCAUGGGUUAAAUUCCUGUGGGAAUCAUACAGGCAGUGUUUGGACCUUCUUCGAAACAAUUCUAGAGUAGAGCGCCUUUACCAUGAUAUCGCCCAACAAGCUUUCAAA	0.191 ratio
GUAUACGGUUAUCGAGGAAAGGACUGUAGAGCGAAUGUAUACCUGCUUCCCACAGGGAAAAUAGUUUAUUUUAUCGCCUCAGUGGUAGUCCUGUUUAAUUAUGAGGAGAGAACUCAGCGA	33.2 ratio
AGUGUGCAGGAAUUCAUGACCUUCACGAGUCAACUGAUUGUGGAGCGCUCGGGGAAAGGCAGCAGAGCUUCUGUCAAAGAACAAGAGUAUCUUUGCCAUGUCUACGUCCGGAGCGACAGU	0.0943 ratio

Series 3 — target: CCNA2, cyclin fold, Cln2 fusion (human); method: yeast growth competition, sequencing; matrix: yeast; setting: strong parent motif; baseline: not given; reading: higher = stronger binding
Starting sequence: SAMHD1 docking peptide (human); ASKSRVQLFKDDP; partner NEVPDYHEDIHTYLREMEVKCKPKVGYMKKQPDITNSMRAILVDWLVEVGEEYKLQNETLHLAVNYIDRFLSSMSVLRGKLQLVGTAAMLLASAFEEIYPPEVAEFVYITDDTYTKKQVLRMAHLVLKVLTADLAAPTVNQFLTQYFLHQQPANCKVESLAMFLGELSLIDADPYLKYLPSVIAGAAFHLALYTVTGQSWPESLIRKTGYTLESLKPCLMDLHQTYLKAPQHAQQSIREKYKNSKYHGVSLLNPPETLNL
Change	normalised enrichment score
L8A	-0.211
K10L	1.85
S4M	1.47
K10I	1.69
F9V	0.0814
R5Y	0.256
R5H	0.561
K10R	2.69
D12Q	2.76
Q7K	2.5
V6A	1.21
K3M	1.1
D11N	2.47
V6M	2
S2V	3.58
V6R	6.41
V6T	1.76
V6F	0.952
R5N	-0.579
D11S	2.26
D11P	2.58
L8G	0.386
L8C	-0.285
K3I	1.04
D12K	2.57

Series 4 — method: protein binding microarray; molecule type: double-stranded DNA, one strand shown; matrix: in vitro; tested at: not given; baseline: not given; reading: higher = stronger binding
Target: Histone acetyltransferase KAT6A, both winged helices, GST fusion (KAT6A, Homo sapiens, UniProt Q92794, residues 1-181)
Setting: 8-mer, flanks averaged, mean of 2 arrays, mostly near background
Construct (chain): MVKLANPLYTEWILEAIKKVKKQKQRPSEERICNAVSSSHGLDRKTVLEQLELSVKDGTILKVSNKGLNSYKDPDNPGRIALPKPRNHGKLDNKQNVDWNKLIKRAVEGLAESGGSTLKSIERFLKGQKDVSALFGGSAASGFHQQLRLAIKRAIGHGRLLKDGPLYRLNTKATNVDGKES
Oligonucleotide	E-score
CACTCGTC	-0.0264
ACGCTGCA	0.0926
AAGGTGTC	0.0236
GAAGTAAA	-0.209
AGTGGTCA	-0.067
CATAGTTC	-0.137
GCGTCGAA	0.24
GGGTAGTA	-0.0286
AGTGCTTC	-0.192
CTGTAAAA	-0.065
AATGCCTC	-0.149
CTAATAAG	-0.114
GTCGAACA	0.03
AGAACGGA	0.0883
ACAGAAGA	-0.0473
GACGCTAA	0.162
CGCCGGTC	0.316
TCCATCGA	-0.0462
CCTCATAC	-0.179
AGGAGTAC	-0.108
AAATCGTC	0.0111
CTCCGCGA	0.0982
TGTGTTAA	-0.0667
GCGCAAGC	0.312
CCAGGTAC	-0.186

Mixed results
Molecule	target	assay	system	conditions	how to read	measurement	value
PhoQ, residues 284 288 289 292 302 303 TAVSDG	PhoP, residues 12 14 15 18 19 NHFIF (Escherichia coli, UniProt P23836)	Sort-seq, measured: YFP reporter	E. coli	PhoQ-PhoP variant library, together with: 10 µM Mg2+	baseline: high Mg2+ state, higher = stronger signaling	fold induction	1.1

Repeated from above (series 4):
Oligonucleotide	E-score
GCGTCGAA	0.24
CGCCGGTC	0.316
CTGTAAAA	-0.065
ACAGAAGA	-0.0473
GCGCAAGC	0.312
AGTGCTTC	-0.192
CTAATAAG	-0.114
GTCGAACA	0.03
TCCATCGA	-0.0462
